Results collected from several papers.
Lines come from different studies, so protocols differ. ± marks the error that the study gave.

Structure (SMILES)	assay	test system	conditions	fraction unbound
COc1ccc2cc1Oc1ccc(cc1)C[C@H]1c3cc(c(OC)cc3CCN1C)Oc1c(OC)c(OC)cc3c1[C@H](C2)N(C)CC3		plasma		0.0573
CNC(C)Cc1ccc2c(c1)OCO2 (centres unmarked)	rapid equilibrium dialysis	human plasma	25 ng/mL	0.832
CCCC[C@@H]1NC(=O)[C@H](Cc2ccc(O)cc2)NC(=O)[C@@H]2CCCN2C(=O)[C@H](CC(=O)O)NC(=O)[C@H](C)NC(=O)[C@H](Cc2ccccc2)NC(=O)[C@@H]2CSCCC(=O)N3CN(CN(C3)C(=O)CCSC[C@@H](C(=O)N[C@@H](C)C(N)=O)NC1=O)C(=O)CCSC[C@H](NC(=O)[C@H](C)NC(C)=O)C(=O)N[C@@H]([C@@H](C)CC)C(=O)N[C@@H](CCC(=O)O)C(=O)N[C@@H](CCC(=O)O)C(=O)N[C@H](CCCCNC(=O)CCc1cn(CCOCCOCCOCCN(CCOCCOCCOCCC(=O)N[C@H]3CSCCC(=O)N4CN5CN(C4)C(=O)CCSC[C@H](NC(=O)[C@@H](CC(=O)O)NC(=O)[C@H](Cc4cccc6ccccc46)NC(=O)[C@@H]4CCCN4C3=O)C(=O)N[C@@H](CCSC)C(=O)N[C@@H](CCCCNC(=N)N)C(=O)N[C@@H](CC(=O)O)C(=O)N[C@@H](Cc3c[nH]c4ccccc34)C(=O)N[C@@H](CO)C(=O)N[C@@H]([C@@H](C)O)C(=O)N3CCC[C@H]3C(=O)N3C[C@H](O)C[C@H]3C(=O)N[C@@H](Cc3c[nH]c4ccccc34)C(=O)N[C@H](C(N)=O)CSCCC5=O)CCOCCOCCOCCn3cc(CCC(=O)NCCCC[C@H]4NC(=O)[C@H](CCC(=O)O)NC(=O)[C@H](CCC(=O)O)NC(=O)[C@H]([C@@H](C)CC)NC(=O)[C@@H](NC(=O)[C@H](C)NC(C)=O)CSCCC(=O)N5CN6CN(C5)C(=O)CCSC[C@H](NC(=O)[C@H](Cc5ccc(O)cc5)NC(=O)[C@H](CCC(N)=O)NC4=O)C(=O)N[C@@H](Cc4ccccc4)C(=O)N[C@@H](C)C(=O)N[C@@H](CC(=O)O)C(=O)N4CCC[C@H]4C(=O)N[C@@H](Cc4ccc(O)cc4)C(=O)N[C@@H](CCCC)C(=O)N[C@H](C(=O)N[C@@H](C)C(N)=O)CSCCC6=O)nn3)nn1)C(=O)N[C@@H](CCC(N)=O)C(=O)N[C@@H](Cc1ccc(O)cc1)C(=O)N2	ultracentrifugation	rat plasma		0.2
O=C1CCC(O)=C1Cc1ccccc1		human plasma		0.14
COc1ccc2c(c1)[C@]13CCCC[C@@H]1[C@H](C2)N(C)CC3	rapid equilibrium dialysis	human plasma	2 µM, 6 h, pH 7.4	0.455
Cc1sc2c(c1C)C(c1ccc(Cl)cc1)=N[C@@H](CC(=O)Nc1ccc(O)cc1)c1nnc(C)n1-2	equilibrium dialysis	mouse brain homogenate	1 µM, 6 h, pH 7.4	0.0305 ± 0.0099
O=C1NC(=O)C(Cc2ccccc2)S1 (centres unmarked)		human plasma		0.03
CN[C@@H]1C[C@H]2O[C@@](C)([C@@H]1OC)n1c3ccccc3c3c4c(c5c6ccccc6n2c5c31)C(=O)N[C@H]4O	equilibrium dialysis	human plasma		0.003
O=c1c(O)c(NCc2ccccc2)c1=O		human plasma		0.06
N=C(CC(O)c1cc2c(F)cc(F)cc2c2cc(C(F)(F)F)ccc12)Nc1ccc(F)c(F)c1 (centres unmarked)	equilibrium dialysis	human plasma	100 ng/mL, 24 h, 0.9% saline dilution	0.002
C=CC(=O)N[C@H]1C=C(C)c2c(-c3cnc4ccccc4c3)c3c(N)ncnc3n2C1	equilibrium dialysis	rat plasma	5 µM, 18 h, pH 7.4	0.154 ± 0.03
O=c1ccc2ncc(=O)n3c2n1C[C@H]3CN1CCC(NCc2cc3c(cn2)OCCC3)CC1		rat plasma		0.7
Cn1c(=O)ccc2ccc(F)c(CCNC[C@H]3CN(c4ccc5c(n4)NC(=O)CO5)C(=O)O3)c21	equilibrium dialysis	human plasma, 10%	10 µM, 18 h	< 0.01
CC(C)CC(=O)OC[C@H]1O[C@@](C#N)(c2ccc3c(N)ncnn23)[C@H](O)[C@@H]1O		dog plasma	0.9 µM	0.366
CS(=O)(=O)NC(=O)CCc1ccccc1		human plasma		0.13
O=c1ccc2ccccc2o1		human plasma		0.31
O=C1C=C(O)CC1Cc1ccccc1 (centres unmarked)		human plasma		0.08
Cn1c(=O)cnc2ccc(F)c(CCNC[C@H]3CN(c4cnc5c(n4)NC(=O)CO5)C(=O)O3)c21	equilibrium dialysis	human plasma, 10%	10 µM, 18 h	0.038
CN(C)S(=O)(=O)NC(=O)CCc1ccccc1		human plasma		0.08
Cn1c(=O)ccc2ccc(F)c(CCNC[C@H]3CN(c4ncc5c(n4)NC(=O)CO5)C(=O)O3)c21	equilibrium dialysis	human plasma, 10%	10 µM, 18 h	0.086

For quick reference, copied from above:
Structure (SMILES)	assay	test system	conditions	fraction unbound
CS(=O)(=O)NC(=O)CCc1ccccc1		human plasma		0.13
O=c1c(O)c(NCc2ccccc2)c1=O		human plasma		0.06
CCCC[C@@H]1NC(=O)[C@H](Cc2ccc(O)cc2)NC(=O)[C@@H]2CCCN2C(=O)[C@H](CC(=O)O)NC(=O)[C@H](C)NC(=O)[C@H](Cc2ccccc2)NC(=O)[C@@H]2CSCCC(=O)N3CN(CN(C3)C(=O)CCSC[C@@H](C(=O)N[C@@H](C)C(N)=O)NC1=O)C(=O)CCSC[C@H](NC(=O)[C@H](C)NC(C)=O)C(=O)N[C@@H]([C@@H](C)CC)C(=O)N[C@@H](CCC(=O)O)C(=O)N[C@@H](CCC(=O)O)C(=O)N[C@H](CCCCNC(=O)CCc1cn(CCOCCOCCOCCN(CCOCCOCCOCCC(=O)N[C@H]3CSCCC(=O)N4CN5CN(C4)C(=O)CCSC[C@H](NC(=O)[C@@H](CC(=O)O)NC(=O)[C@H](Cc4cccc6ccccc46)NC(=O)[C@@H]4CCCN4C3=O)C(=O)N[C@@H](CCSC)C(=O)N[C@@H](CCCCNC(=N)N)C(=O)N[C@@H](CC(=O)O)C(=O)N[C@@H](Cc3c[nH]c4ccccc34)C(=O)N[C@@H](CO)C(=O)N[C@@H]([C@@H](C)O)C(=O)N3CCC[C@H]3C(=O)N3C[C@H](O)C[C@H]3C(=O)N[C@@H](Cc3c[nH]c4ccccc34)C(=O)N[C@H](C(N)=O)CSCCC5=O)CCOCCOCCOCCn3cc(CCC(=O)NCCCC[C@H]4NC(=O)[C@H](CCC(=O)O)NC(=O)[C@H](CCC(=O)O)NC(=O)[C@H]([C@@H](C)CC)NC(=O)[C@@H](NC(=O)[C@H](C)NC(C)=O)CSCCC(=O)N5CN6CN(C5)C(=O)CCSC[C@H](NC(=O)[C@H](Cc5ccc(O)cc5)NC(=O)[C@H](CCC(N)=O)NC4=O)C(=O)N[C@@H](Cc4ccccc4)C(=O)N[C@@H](C)C(=O)N[C@@H](CC(=O)O)C(=O)N4CCC[C@H]4C(=O)N[C@@H](Cc4ccc(O)cc4)C(=O)N[C@@H](CCCC)C(=O)N[C@H](C(=O)N[C@@H](C)C(N)=O)CSCCC6=O)nn3)nn1)C(=O)N[C@@H](CCC(N)=O)C(=O)N[C@@H](Cc1ccc(O)cc1)C(=O)N2	ultracentrifugation	rat plasma		0.2
